Measurements of several laboratories.
± marks the error that the study gave. In brackets after ≈: the same amount, converted by molar mass.

Structure (SMILES)	assay	test system	conditions	scale	endpoint	value
CSCC[C@@H]1NC(=O)[C@H](CC(=O)O)NC(=O)CNC(=O)[C@H](CCCNC(=N)N)NC(=O)[C@H](C)NC(=O)[C@H](CCC(=O)O)NC(=O)[C@H](CCCNC(=N)N)NC(=O)[C@@H]2CSSC[C@@H]3NC(=O)[C@H](CO)NC(=O)[C@H]([C@@H](C)O)NC(=O)[C@@H]4CCCN4C(=O)[C@H](C)NC(=O)[C@H](Cc4c[nH]c5ccccc45)NC(=O)[C@H](CC(=O)O)NC(=O)CNC(=O)[C@H](CCCNC(=N)N)NC(=O)CNC(=O)[C@H](CCC(N)=O)NC(=O)[C@@H]4CCCN4C(=O)[C@@H](NC(=O)CNC(=O)C(C)F)CSSC[C@H](NC(=O)CNC(=O)[C@H](C)NC(=O)[C@H](CC(C)C)NC(=O)[C@H](CSSC[C@@H](C(=O)NCC(N)=O)NC(=O)[C@H]([C@@H](C)O)NC(=O)[C@H](CCCNC(=N)N)NC(=O)[C@@H]4CCCN4C1=O)NC(=O)[C@H](CC(=O)O)NC(=O)[C@H](CO)NC(=O)[C@H](CC(=O)O)NC(=O)[C@H](CCC(N)=O)NC(=O)[C@H](CO)NC3=O)C(=O)N[C@@H](C(C)C)C(=O)N2 (stereo partly shown) [fluorine-18 labelled]	–	nude mice U-87 MG xenograft, tumor	intravenous, 1 h	–	tissue uptake	2.22 ± 0.62 %ID/g
N=C(N)NCCC[C@H](NC(=O)[C@H](Cc1c[nH]c2ccccc12)NC(=O)[C@H](CCC(N)=O)NC(=O)[C@H](Cc1c[nH]c2ccccc12)NC(=O)[C@H](CCCNC(=N)N)NC(=O)[C@H](Cc1c[nH]c2ccccc12)NC(=O)[C@H](CCC(N)=O)NC(=O)[C@H](Cc1c[nH]c2ccccc12)NC(=O)[C@H](CCCNC(=N)N)NC(=O)CCCCCN)C(N)=O	–	human erythrocytes O+	200 µg/mL, 2 h, 37 °C	–	hemolysis	7.7%
CCCCCOc1ccc(-c2cc(-c3ccc(C(=O)N[C@H]4C[C@@H](O)[C@@H](O)NC(=O)[C@@H]5[C@@H](O)[C@@H](C)CN5C(=O)[C@H]([C@H](O)CC(N)=O)NC(=O)[C@H]([C@H](O)[C@@H](O)c5ccc(O)c(OS(=O)(=O)O)c5)NC(=O)[C@@H]5C[C@@H](O)CN5C(=O)[C@H]([C@@H](C)O)NC4=O)cc3)no2)cc1	–	infants below 1000 g, plasma	intravenous infusion, 10 mg/kg/day, day 4, 1 h infusion	–	AUC(0-24)	308 µg·h/mL
O=S(=O)(O)C(F)(F)C(F)(F)C(F)(F)C(F)(F)C(F)(F)C(F)(F)F	LC-MS	C57BL/6J mouse male, plasma	drinking water, 2 mg/L each PFAS, 12 weeks	–	plasma concentration	25600 ± 5800 ng/mL
CCCN1C[C@H](C)N([C@H](c2ccc(C(=O)N(CC)CC)cc2)c2cccc(OC)c2)C[C@H]1C	–	rat	no efflux inhibition	–	log intrinsic permeability	-4.06
CC(=O)N[C@H](CCCCNC(=O)C(C)F)C(=O)N[C@@H](CS)C(=O)N[C@@H](CS)C(=O)N[C@@H](CCC(=O)O)C(=O)N[C@@H](Cc1c[nH]cn1)C(=O)N[C@H](Cc1ccccc1)C(=O)N[C@@H](CCCNC(=N)N)C(=O)N[C@@H](Cc1c[nH]c2ccccc12)C(=O)N[C@@H](CS)C(=O)N[C@@H](CCCNC(=N)N)C(=O)N1CCC[C@H]1C(=O)N[C@H](C(N)=O)C(C)C (stereo partly shown) [fluorine-18 labelled]	–	C57BL/6 mice, male, B16-F10 tumour, lung	intravenous, 2 h	–	tissue uptake	0.8 ± 0.03 %ID/g
CNC(=O)c1ccc(-c2cnn3ccc(C(=O)N(C)c4ccc(Cl)c(C(=O)OC)c4)cc23)cc1	–	Wistar rats, both sexes, plasma	oral, 50 mg/kg/day, day 14, 2-week toxicology study	–	AUC(0-8 h)	0.00277 µg·h/mL
COc1ccc(C[C@@H]2NC(=O)[C@H]([C@@H](C)O)NC(=O)[C@@H]3[C@@H]4CCN3C(=O)[C@@H]3Cc5cn(c6ccc(F)cc56)CCCCCCN(Cc5ccc(cc5)CCNC(=O)[C@]5(C)CCCN5C2=O)C(=O)CCC(=O)N[C@@H](C)C(=O)N[C@H](CNC(=O)CCCCC[N+](C)(C)C)C(=O)N[C@@H](Cc2cccc(c2)CNC(=O)CO4)C(=O)N3)cc1	–	human, plasma	oral, 10 mg, days 1 and 14, together with: low-fat breakfast 30 min before	baseline: fasted	reduction of AUC, Cmax, C24	40 to 55%
COc1ccccc1Nc1ccc2c(c1)C(c1ccccc1F)=NC(C)C(=O)N2 (stereo not shown)	shake flask	PBS	24 h, pH 7.4	–	solubility	3.9 µM (≈ 1.52 µg/mL)
[123I]c1cncc(OC[C@@H]2CCN2)c1	SPECT	human, cerebellum	intravenous bolus, 9.1 mCi	baseline: tissue over plasma	tissue/plasma ratio	11.1
CN[C@@](C)(C[18F])C(=O)O	–	SCID mouse A549 xenograft, brain	30 min, post injection	–	tissue uptake	0.4 ± 0.1 %ID/g
Cc1cnc(C(=O)N[C@H]2CCCCC/C=C\[C@@H]3C[C@@]3(C(=O)NS(=O)(=O)C3CC3)NC(=O)[C@@H]3C[C@@H](Oc4nc5ccccc5c5ccccc45)CN3C2=O)cn1	–	healthy human volunteers, plasma	oral, dose not given, together with: rosuvastatin plus 2D regimen	–	AUC(0-24)	2.45 µg·h/mL
N[C@@H](CC(=O)N1CCc2c(nc(C(F)(F)F)nc2C(F)(F)F)C1)CN1CC(F)(F)CCC1=O	–	healthy Korean men, plasma	oral, dose not given, together with: glimepiride	baseline: with over without glimepiride	AUC(tau) ratio steady state	1
CCCCCCCC[N+](C)(C)Cc1ccccc1	in vitro-in vivo extrapolation	human	–	–	hepatic clearance	9.45 mL/h/g liver
CC(C)C(=O)OC[C@H]1O[C@@H](n2ccc(NO)nc2=O)[C@H](O)[C@@H]1O	–	rat blood dialysate	250 ng/mL, 6 h, room temperature, bench-top stability, together with: NHC 1000 ng/mL	–	remaining compound	108 ± 3.29%
O=C(O)c1cc2c(c3c1c([N+](=O)[O-])cc1c(O)cccc13)OCO2	–	Wistar rat, male, urine	subcutaneous, 2 mg of aristolochic acid I, 24 h collection	–	urine concentration	24.1 µM
O=C(O)CC[C@H](NC(=O)CNC(=O)[C@@H]1C[C@@H](O)CN1)C(=O)N[C@@H](Cc1ccccc1)C(=O)NCC(=O)O	–	ICR mouse, tail bleeding	oral, 450 µmol/kg	baseline: vehicle	spleen index	no effect
CC(C)[C@H]1C(=O)N[C@@H](CCCN=C(N)N)C(=O)NCC(=O)N[C@@H](CC(=O)O)C(=O)N[C@H](Cc2ccccc2)C(=O)N1C	–	NMRI mice, female, plasma	intravenous, 2.5 mg/kg	–	plasma half-life	18 min
CCCCCOc1ccc(-c2cc(-c3ccc(C(=O)N[C@H]4C[C@@H](O)[C@@H](O)NC(=O)[C@@H]5[C@@H](O)[C@@H](C)CN5C(=O)[C@H]([C@H](O)CC(N)=O)NC(=O)[C@H]([C@H](O)[C@@H](O)c5ccc(O)c(OS(=O)(=O)O)c5)NC(=O)[C@@H]5C[C@@H](O)CN5C(=O)[C@H]([C@@H](C)O)NC4=O)cc3)no2)cc1	–	preterm neonates below 1000 g, plasma	intravenous, 15 mg/kg/day, repeated dosing, mean	–	AUC(0-24)	413 µg·h/mL
CC[C@H](C)[C@H](NC(=O)[C@@H](N)CCCNC(=N)N)C(=O)N[C@H](C(=O)N1CCC[C@H]1C(=O)N[C@@H](C)C(N)=O)C(C)C	–	human, plasma	intravenous, 5 mg/kg, single dose, healthy volunteers	–	MRT	6 min
O=C1Nc2ccc(Cl)cc2[C@@](C#CC2CC2)(C(F)(F)F)O1	LC-MS/MS	rhesus monkey both sexes, brain	dose not given, 1 day after 10-day dosing	–	tissue concentration	> 150 ng/g
O[C@H]1CCCN[C@@H]1CCCn1cnc2c(Cl)c(Cl)ccc21	–	human, plasma	oral, 100 mg single dose, capsule, geometric mean	–	mean residence time	9.26 h

For quick reference, copied from above:
Structure (SMILES)	assay	test system	conditions	scale	endpoint	value
N[C@@H](CC(=O)N1CCc2c(nc(C(F)(F)F)nc2C(F)(F)F)C1)CN1CC(F)(F)CCC1=O	–	healthy Korean men, plasma	oral, dose not given, together with: glimepiride	baseline: with over without glimepiride	AUC(tau) ratio steady state	1
